{"data": "Measurements collected from several papers", "note": "Lines come from different studies, so protocols differ. Numbers after ± are the reported error."}
{"SMILES": "O=C(Nc1cc(C(F)(F)F)cc(C(F)(F)F)c1)c1cc(Cl)ccc1O", "target": "androgen receptor", "test": "Western blot", "system": "CWR22Rv1", "setting": "1 µM, 16 h", "quantity": "AR protein level", "value": "inhibited"}
{"SMILES": "C[C@]12CC[C@@H]3c4ccc(OCC(=O)N[C@@H](CCCCNC(=O)CN5CCN(CC(=O)[O-])CCN(CC(=O)[O-])CCN(CC(=O)[O-])CC5)C(=O)O)cc4CC[C@H]3[C@@H]1CCC2=O.[68Ga+3]", "target": "estrogen receptor", "system": "nude mice, MCF7 xenograft, uterus", "setting": "dose not given, 2.5 h post-injection, together with: estradiol 200 µg co-injected", "how to read": "relative to: unblocked", "quantity": "uptake reduction by blocking", "value": "~46%"}
{"SMILES": "Cc1cc(C)nc(NC(=S)N2CCN(c3ccncc3)CC2)c1", "target": "panel of other dehydrogenases", "test": "enzyme activity", "setting": "concentration not given", "quantity": "inhibition", "value": "inactive"}
{"SMILES": "CC1CCC(C(C)C)C(OC(=O)Cn2c(-c3ccc(OC(=O)CCCCC4SCC5NC(=O)NC54)cc3)[n+](C)c3ccccc32)C1 (centres unmarked)", "target": "mouse OxPhos proteins", "test": "biotin pull-down", "system": "HTS cells", "quantity": "time to protein binding", "value": "≤ 10 min"}
{"SMILES": "C=CC(=O)Oc1ccc(Cl)cc1C(=O)Nc1ccc([N+](=O)[O-])cc1Cl", "target": "androgen receptor", "test": "Western blot", "system": "CWR22Rv1", "setting": "1 µM, 16 h", "quantity": "AR protein level", "value": "inhibited"}
{"SMILES": "Cc1nc(C)c(C=[N+]([O-])C(C)(C)C)nc1C", "target": "mitochondrial complex I, rat", "system": "cerebellar granule neurons, rat", "setting": "100 µM, together with: MPP+", "quantity": "complex I activity increase", "value": "35.6%"}
{"SMILES": "O=C(c1ccc(F)cc1)N1CCCC(c2nc(-c3cccs3)no2)C1 (centres unmarked)", "target": "mGluR5", "test": "calcium fluorescence, positive allosteric modulator", "system": "mGluR5-expressing cells", "setting": "together with: glutamate EC20", "how to read": "relative to: maximal glutamate response", "quantity": "Emax", "value": "98 ± 4%"}
{"SMILES": "COc1cc(CCC(C)=O)ccc1O", "target": "mAb 2-LD2", "test": "antibody binding, indirect competitive ELISA", "setting": "together with: coating antigen hapten 1-OVA", "quantity": "IC50", "value": "> 4 µg/mL"}
{"SMILES": "COc1ccc(N2C(=O)C=CC2=O)cc1", "target": "DPP3 (Candida albicans)", "test": "GFP fluorescence", "system": "Candida albicans, BWP17 DPP3-GFP", "setting": "1 µg/mL, 4 h", "how to read": "relative to: untreated", "quantity": "DPP3 expression", "value": "2.49 fold"}
{"SMILES": "CCCNCC(=O)O", "target": "DNA", "test": "binding, UV-vis absorption titration", "quantity": "midpoint concentration", "value": "952 µM"}
{"SMILES": "CC[C@H](C)[C@H](NC(=O)[C@H](Cc1ccccc1)NC(=O)[C@@H](NC(=O)[C@@H](NC(=O)[C@H](CC(C)C)NC(=O)[C@H](CCCCN)NC(=O)[C@@H](N)CCCCN)[C@@H](C)CC)[C@@H](C)O)C(=O)N[C@@H](CC(C)C)C(=O)N[C@@H](CCCNC(=N)N)C(=O)N[C@@H](CCCNC(=N)N)C(=O)N[C@H](C(=O)N[C@@H](CCCNC(=N)N)C(=O)N[C@@H](CCC(=O)O)C(=O)N[C@@H](CCCCN)C(=O)N[C@@H](CCCCN)C(=O)N[C@@H](CCCCN)C(=O)N[C@@H](CCC(=O)O)C(=O)N[C@@H](CS)C(=O)N[C@@H](CC(C)C)C(=O)N[C@H](C(=O)O)C(C)C)[C@@H](C)O", "target": "voltage-gated sodium channel", "test": "resurgent sodium current, kinetic model fit", "system": "mouse CA3 neurons", "setting": "200 µM, membrane potential -30 mV", "quantity": "rate constant kOI", "value": "68 s⁻¹"}
{"SMILES": "Cc1cc(/C=C/c2ccc(O)c(O)c2)[nH]n1", "target": "glutathione peroxidase", "test": "enzyme activity", "system": "MCF7", "setting": "25 µM, 48 h", "quantity": "inhibition", "value": "31%"}
{"SMILES": "O=C(O)c1ccc(/C=C2\\SC(=S)N(Cc3cccc(C(F)(F)F)c3)C2=O)cc1", "target": "NLRP3 Walker B mutant", "test": "biotin pull-down", "system": "HEK-293T lysate", "setting": "concentration not given", "how to read": "relative to: wild type", "quantity": "NLRP3 binding", "value": "no effect"}
{"SMILES": "CNC(=O)C1CCN(c2cc(C)c(F)cc2NC(=O)c2ccc(-c3cc(O)ccc3C)c(C)c2)CC1", "target": "human EPHA2/EPHA4", "test": "phosphorylation, inhibitor, Western blot", "system": "12Z", "setting": "15 min pretreatment, together with: EFNA5 0.5 µg/mL", "how to read": "lowest concentration", "quantity": "significant inhibitory concentration", "value": "1 µM"}
{"SMILES": "CCCCCC(C)NCC(=O)O (centres unmarked)", "target": "DNA", "test": "binding, UV-vis absorption titration", "setting": "concentration not given", "quantity": "hypochromicity", "value": "44.5%"}
{"SMILES": "CC(C)(C)C(=O)Nc1ccc2[nH]c(CN3CCC(N(CCCN4CCOCC4)CC4OC(n5cnc6c(N)ncnc65)C(O)C4O)CC3)nc2c1 (centres unmarked)", "target": "DOT1L R231Q", "test": "Western blot", "system": "H460 R231Q cells", "setting": "5 µM", "how to read": "relative to: untreated", "quantity": "H3K79me2 level", "value": "decreased"}
{"SMILES": "CCOCCNC(=O)N1CCC[C@H](c2n[nH]c(-c3ccccc3)n2)C1", "target": "recombinant aromatase CYP19", "test": "absorption spectroscopy", "setting": "100 µM, no androstenedione", "quantity": "Soret peak wavelength", "value": "418 nm"}
{"SMILES": "Cc1sc2ncn(CC(=O)N3CCCC3)c(=O)c2c1-c1cccc(Br)c1", "target": "NMDA receptor, mouse", "test": "single-channel current, outside-out patch", "system": "cortical neurons", "setting": "50 µM, together with: Ca2+ 1.25 mM", "quantity": "γ1 conductance level area", "value": "59%"}
{"SMILES": "O=C(c1ccc(F)cc1)N1CCCC(c2nc(-c3ncccn3)no2)C1 (centres unmarked)", "target": "mGluR5", "test": "calcium fluorescence, positive allosteric modulator", "system": "mGluR5-expressing cells", "setting": "together with: glutamate EC20", "quantity": "EC50", "value": "> 10 µM"}
{"SMILES": "CC[C@H](C)[C@H](NC(=O)[C@H](Cc1ccccc1)NC(=O)[C@@H](NC(=O)[C@@H](NC(=O)[C@H](CC(C)C)NC(=O)[C@H](CCCCN)NC(=O)[C@@H](N)CCCCN)[C@@H](C)CC)[C@@H](C)O)C(=O)N[C@@H](CC(C)C)C(=O)N[C@@H](CCCCN)C(=O)N[C@@H](CCCCN)C(=O)N[C@H](C(=O)N[C@@H](CCCNC(=N)N)C(=O)N[C@@H](CCC(=O)O)C(=O)N[C@@H](CCCCN)C(=O)N[C@@H](CCCCN)C(=O)N[C@@H](CCCCN)C(=O)N[C@@H](CCC(=O)O)C(=O)N[C@@H](CS)C(=O)N[C@@H](CC(C)C)C(=O)N[C@H](C(=O)O)C(C)C)[C@@H](C)O", "target": "voltage-gated sodium channel", "test": "resurgent sodium current, kinetic model fit", "system": "mouse CA3 neurons", "setting": "200 µM, membrane potential -30 mV", "quantity": "rate constant kOI", "value": "88 s⁻¹"}
{"SMILES": "COC(=O)C=CCCC(NC(=O)c1ccncc1C(=O)O)C(=O)NC(C(=O)N1CC(=O)CC1C(=O)NC(C(=O)NC(C(N)=O)C1CCCCC1)C1CCCCC1)C(C)(C)C (centres unmarked)", "target": "factor XIII, rabbit", "test": "isopeptidase activity", "system": "rabbit, plasma", "setting": "intravenous bolus plus infusion, dose not given", "quantity": "inhibition", "value": "> 95%"}
{"SMILES": "CC[C@H](C)[C@H](NC(=O)[C@H](CC(C)C)NC(=O)[C@@H](NC(=O)[C@@H](NC(=O)[C@H](CC(C)C)NC(=O)[C@H](CCCCN)NC(=O)[C@@H](N)CCCCN)[C@@H](C)CC)[C@@H](C)O)C(=O)N[C@@H](Cc1ccccc1)C(=O)N[C@@H](CCCCN)C(=O)N[C@@H](CCCCN)C(=O)N[C@H](C(=O)N[C@@H](CCCNC(=N)N)C(=O)N[C@@H](CCC(=O)O)C(=O)N[C@@H](CCCCN)C(=O)N[C@@H](CCCCN)C(=O)N[C@@H](CCCCN)C(=O)N[C@@H](CCC(=O)O)C(=O)N[C@@H](CS)C(=O)N[C@@H](CC(C)C)C(=O)N[C@H](C(=O)O)C(C)C)[C@@H](C)O", "target": "voltage-gated sodium channel", "test": "resurgent sodium current, kinetic model fit", "system": "mouse CA3 neurons", "setting": "200 µM, membrane potential -30 mV", "quantity": "rate constant kOI", "value": "107 s⁻¹"}
{"SMILES": "CCNS(=O)(=O)c1ccc(COc2ccc3nc4ccc(=O)cc-4oc3c2)cc1", "target": "human DDR2 T654I", "system": "HEK293", "setting": "concentration not given, 4 h, together with: collagen I 30 µg/mL", "quantity": "DDR2 phosphorylation", "value": "inhibited"}
{"SMILES": "O=C1CC(c2ccoc2)c2ccc(NC(=O)c3ccccc3)cc2N1 (centres unmarked)", "target": "recombinant aromatase CYP19", "test": "absorption spectroscopy", "setting": "100 µM, no androstenedione", "how to read": "relative to: 416 nm", "quantity": "Soret peak red shift", "value": "4 nm"}
{"SMILES": "O=C(c1ccc(F)cc1)N1CCCC(c2nc(-c3cccnc3)no2)C1 (centres unmarked)", "target": "mGluR5", "test": "calcium fluorescence, positive allosteric modulator", "system": "mGluR5-expressing cells", "setting": "together with: glutamate EC20", "quantity": "EC50", "value": "5 ± 0.807 µM"}
{"SMILES": "CC[C@H](C)[C@H](NC(=O)[C@H](C)NC(=O)[C@@H](NC(=O)[C@@H](NC(=O)[C@H](CC(C)C)NC(=O)[C@H](CCCCN)NC(=O)[C@@H](N)CCCCN)[C@@H](C)CC)[C@@H](C)O)C(=O)N[C@@H](CC(C)C)C(=O)N[C@@H](CCCCN)C(=O)N[C@@H](CCCCN)C(=O)N[C@H](C(=O)N[C@@H](CCCNC(=N)N)C(=O)N[C@@H](CCC(=O)O)C(=O)N[C@@H](CCCCN)C(=O)N[C@@H](CCCCN)C(=O)N[C@@H](CCCCN)C(=O)N[C@@H](CCC(=O)O)C(=O)N[C@@H](CS)C(=O)N[C@@H](CC(C)C)C(=O)N[C@H](C(=O)O)C(C)C)[C@@H](C)O", "target": "voltage-gated sodium channel", "test": "resurgent sodium current, kinetic model fit", "system": "mouse CA3 neurons", "setting": "200 µM, membrane potential -30 mV", "quantity": "rate constant kOB", "value": "42 s⁻¹"}
{"SMILES": "CC(/C=C/C(=O)NO)=C\\[C@@H](C)C(=O)c1ccc(N(C)C)cc1", "target": "PTPN1, PTPN12, PTPRA, LMWPTP, human", "test": "phosphatase activity", "setting": "concentration not given", "quantity": "inhibition", "value": "inactive"}
{"SMILES": "O=C(c1ccc(F)cc1)N1CCCC(c2nc(-c3ccncc3)no2)C1 (centres unmarked)", "target": "mGluR5", "test": "calcium fluorescence, positive allosteric modulator", "system": "mGluR5-expressing cells", "setting": "together with: glutamate EC20", "how to read": "relative to: maximal glutamate response", "quantity": "Emax", "value": "93 ± 5%"}
{"SMILES": "Cn1c(=O)oc2ccc(-c3ccc(CC(C#N)NC(=O)C4CNCCCO4)c(F)c3)cc21 (centres unmarked)", "target": "neutrophil elastase (human)", "test": "neutrophil-normalised activity", "system": "human, whole blood", "setting": "40 mg once daily, day 28", "quantity": "maximal reduction", "value": "76.4%"}
{"note": "A few entries again:"}
{"SMILES": "CNC(=O)C1CCN(c2cc(C)c(F)cc2NC(=O)c2ccc(-c3cc(O)ccc3C)c(C)c2)CC1", "target": "human EPHA2/EPHA4", "test": "phosphorylation, inhibitor, Western blot", "system": "12Z", "setting": "15 min pretreatment, together with: EFNA5 0.5 µg/mL", "how to read": "lowest concentration", "quantity": "significant inhibitory concentration", "value": "1 µM"}
{"SMILES": "CCOCCNC(=O)N1CCC[C@H](c2n[nH]c(-c3ccccc3)n2)C1", "target": "recombinant aromatase CYP19", "test": "absorption spectroscopy", "setting": "100 µM, no androstenedione", "quantity": "Soret peak wavelength", "value": "418 nm"}
{"SMILES": "Cc1cc(/C=C/c2ccc(O)c(O)c2)[nH]n1", "target": "glutathione peroxidase", "test": "enzyme activity", "system": "MCF7", "setting": "25 µM, 48 h", "quantity": "inhibition", "value": "31%"}
{"SMILES": "C[C@]12CC[C@@H]3c4ccc(OCC(=O)N[C@@H](CCCCNC(=O)CN5CCN(CC(=O)[O-])CCN(CC(=O)[O-])CCN(CC(=O)[O-])CC5)C(=O)O)cc4CC[C@H]3[C@@H]1CCC2=O.[68Ga+3]", "target": "estrogen receptor", "system": "nude mice, MCF7 xenograft, uterus", "setting": "dose not given, 2.5 h post-injection, together with: estradiol 200 µg co-injected", "how to read": "relative to: unblocked", "quantity": "uptake reduction by blocking", "value": "~46%"}
